Measured values collected from several papers.
Protocols differ between the studies behind these lines.
Route: oral

COc1cccc(-c2ccc(NC(=O)C3=C(C(=O)O)CCC3)c(F)c2)c1 gave a Cmax of 3370 ng/mL (male human, plasma; 20 mg, single dose, fasted, healthy volunteers).
CCCOc1ccc([C@H]2CNC(=O)N2c2ccc3[nH]cnc3c2)cc1 has a Cmax of 818 ng/mL (human, plasma; 200 mg, single dose, fasted).
O=C(CCCCCCC(=O)Nc1ccccc1)NO gave a Cmax of 3.59 µM (human, serum; 800 mg, patients).
CCCCCN1C[C@H](O)[C@@H](O)[C@H](O)[C@@H]1CO gave a Cmax of 2270 ng/mL (male human, plasma; 300 mg, single dose, fed, healthy volunteers).
Cc1c(Cl)c(C)[n+]([O-])c(Cl)c1-c1noc(-c2cc(O)c(O)c([N+](=O)[O-])c2)n1 gave a Cmax of 804 ng/mL (male human, plasma; 25 mg, single dose, fasted, healthy volunteers).
With C[C@@H]1CCC[C@H](n2cnc(-c3cc(Cl)ccc3-n3cc(Cl)nn3)cc2=O)c2cc(ccn2)-c2c(cnn2C(F)F)NC1=O the Cmax was 126 ng/mL (human, plasma; 20 mg, single dose, fasted, healthy volunteers).
With O=C(c1nc2n(n1)[C@H](c1ccccc1)C[C@@H]2F)C1CC1 the Cmax was 1830 ng/mL (human, plasma; 225 mg, single dose, fasted, healthy volunteers).
Nc1ccc(-c2nc([C@H]3CCc4cc(-c5cc(Cl)ccc5-n5cnnn5)cc(=O)n43)c(F)[nH]2)c(F)n1 has a Cmax of 159 ng/mL (human, plasma; 20 mg, single dose, fasted).
CNCc1ccc(-c2[nH]c3cc(F)cc4c3c2CCNC4=O)cc1 has a Cmax of 971 ng/mL (human, plasma; 240 mg, multiple doses, twice daily, steady state, patients).
The Cmax of Nc1ncc(-c2cnn(CCO)c2)c2scc(-c3ccc(NC(=O)Nc4cccc(F)c4)cc3)c12 is reported as 1550 ng/mL (human, plasma; 640 mg, patients).
For CNC(=O)c1ccc(-c2cnc3ncc(Cc4ccc5ncccc5c4)n3n2)cc1F, the Cmax was 4410 ng/mL (human, plasma; 350 mg twice daily, multiple doses, steady state, patients).
CS(=O)(=O)n1cc2c(n1)CN([C@H]1CO[C@H](c3cc(F)ccc3F)[C@@H](N)C1)C2 has a Cmax of 0.223 µM (male human, plasma; 10 mg, single dose, fed).
C#C[C@]1(CO)O[C@@H](n2cnc3c(N)nc(F)nc32)C[C@@H]1O gave a Cmax of 6.18 µM (human, plasma; 200 mg, single dose, fasted).

A few entries again:
With C[C@@H]1CCC[C@H](n2cnc(-c3cc(Cl)ccc3-n3cc(Cl)nn3)cc2=O)c2cc(ccn2)-c2c(cnn2C(F)F)NC1=O the Cmax was 126 ng/mL (human, plasma; 20 mg, single dose, fasted, healthy volunteers).
With O=C(c1nc2n(n1)[C@H](c1ccccc1)C[C@@H]2F)C1CC1 the Cmax was 1830 ng/mL (human, plasma; 225 mg, single dose, fasted, healthy volunteers).
